Experimental data pooled from the literature.
Numbered parts are unrelated; each lists some results of a single study. Substitutions count along the parent as printed.

Block 1
Target: Interferon regulatory factor 3, full length, phosphomimetic (IRF3, Homo sapiens, UniProt Q14653, residues 1-427, S386D/S396D/S398D/S402D/T404D/S405D)
Method: protein-binding microarray
Molecule type: double-stranded DNA, one strand shown
Matrix: in vitro
Concentration: 2540 nM top
Notes: 60-bp whole probe
Together with: salmon DNA 0.4 mg/ml
Reference: random background probes
Direction: higher = stronger binding
Shared flanks, not repeated: GCCTAGCAC … GTCTTGATTCGCTTGACGCTGCTG
Construct (chain): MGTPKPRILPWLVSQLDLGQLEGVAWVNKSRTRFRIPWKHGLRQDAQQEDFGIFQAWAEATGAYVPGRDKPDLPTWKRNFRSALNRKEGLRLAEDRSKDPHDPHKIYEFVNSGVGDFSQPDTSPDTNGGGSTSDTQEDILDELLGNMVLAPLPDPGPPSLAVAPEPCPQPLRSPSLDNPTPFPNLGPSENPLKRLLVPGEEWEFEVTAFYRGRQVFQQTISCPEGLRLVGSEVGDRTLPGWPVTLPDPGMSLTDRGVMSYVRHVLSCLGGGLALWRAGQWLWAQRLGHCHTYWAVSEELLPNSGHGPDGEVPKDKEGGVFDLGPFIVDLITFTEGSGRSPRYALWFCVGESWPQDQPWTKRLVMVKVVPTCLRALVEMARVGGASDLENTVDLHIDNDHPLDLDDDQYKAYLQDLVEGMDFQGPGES
Oligonucleotide | fitted relative affinity
TTAGGACAGGGGACTGGGTTAGTGCTA | -0.863 z-score
GACGGTTACGACTATCGGGACGTGCTA | 0.224 z-score
GACGACCTCAGTATCGAGACGTGCTAG | -0.0645 z-score
TTAAGACTGCTACTGCTTTAGTGCTAG | -0.751 z-score
GACGGTATCGGTTCCGGGACGTGCTAG | 6.35 z-score
GACGAGCTGGGGACTGGAGACGTGCTA | -1.2 z-score
TTCGATTTCAGACTGGATTAGTGCTAG | 1.16 z-score
GACGGTCTTCTTTTCCTGACGTGCTAG | 1.43 z-score
CTCCCTCAGGGTTTCAGATGGTGCTAG | 0.215 z-score
GACGGACTCGGGTTTCGGGACGTGCTA | 0.869 z-score
GACGGTTCCGGTTTGGGGACGTGCTAG | 3.33 z-score
GACGATTTCAGTCACGAGACGTGCTAG | 0.851 z-score
GACGGATTCCTTTCCCTGACGTGCTAG | 5.17 z-score
GACGGTTACGGTATCGGGACGTGCTAG | 1.7 z-score
TCATCTCTGCCACTCAGACTGTGCTAG | 0.577 z-score
TTAGGACTGGACATTCGGTTAGTGCTA | -0.348 z-score
GACGGGCTGGGGTTTCGGGACGTGCTA | 0.0945 z-score
GGTACAAACTTGTAATTATAGTGCTAG | 0.502 z-score
CTGCCTTCAGAGCTGTCTGTGTGCTAG | -0.562 z-score
TTAGGTTTCGTCTATCGGTTAGTGCTA | 2.39 z-score
TGAGGACTGGGACTGGGTTAGTGCTAG | -1.33 z-score
TTAGGATTCCTACTGCTTTAGTGCTAG | 1.02 z-score
TTAGGTATCGGCATCGGTTAGTGCTAG | 0.658 z-score
GACGATTTCGGGACTGGTGACGTGCTA | 1.64 z-score
TTAGGTTTCGGTTTGGGTTAGTGCTAG | 8.94 z-score

Block 2
Target: RING finger protein unkempt homolog, zinc fingers 1-6, GST-SBP tag (UNK, Homo sapiens, UniProt Q9C0B0, residues 30-357)
Method: RNA Bind-n-Seq
Molecule type: RNA
Matrix: in vitro
Concentration: not given
Notes: RNA with constant flanks, human and mouse sites, ends assumed
Reference: input RNA pool
Direction: higher = stronger binding
Shared flanks, not repeated: GGGAGUUCUACAGUCCGACGAUC … CAACAGAGGAUUGAGCAUCA
Residues (chain): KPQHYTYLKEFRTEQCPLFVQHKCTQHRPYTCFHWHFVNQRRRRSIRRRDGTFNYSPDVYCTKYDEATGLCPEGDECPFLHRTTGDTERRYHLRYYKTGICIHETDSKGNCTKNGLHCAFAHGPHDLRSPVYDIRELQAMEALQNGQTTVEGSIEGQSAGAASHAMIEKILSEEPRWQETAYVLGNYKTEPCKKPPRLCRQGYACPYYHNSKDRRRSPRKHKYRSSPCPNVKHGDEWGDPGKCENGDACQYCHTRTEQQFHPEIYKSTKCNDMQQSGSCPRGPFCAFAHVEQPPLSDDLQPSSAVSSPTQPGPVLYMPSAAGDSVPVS
Oligonucleotide | bound/input enrichment [ratio]
GCAGGCGGCAUCUAAAGCAGCUUCUAAACAGAGAGAGAUGCUCAUGGAAGAUGUGGGCAGUGAGGAAGAACAAGAAGAGGAGGAUGAGGCACCAUUCCAGGAGAAAGAUUCCGGCAGCGA | 0.187
UCUAUUGUGAUUGCAUAUAACUACUGCUUUUCCACCUGCCUUGGCCAUGUGGAGAACUUGGGAAAGUAUGAUGAGUUCAAAUUUGGCUGUACCUCUCUGAGAGUACCUCCAGAUUUACUU | 0.103
UUAUUUAAGCAUUGAGUGCAUUAGAAUUUAUUUACAGAGUGCAUGAUGUUCUGACUCUAGUUUAGAUUUAUUUAAGAAACCAAAUCUCCAGAUUUUUUCAGGACACAGGAUCUUAGACUU | 2.54
AGUGGCCUCACUGAUGAGACCGCUUUCAGCUGCUGCUCCGAUCCAGACCCUAGCACCAAGGAUUUUCUACUGCAGCAAACGAUGCUAAGAAUUAAGGAUCCUAAGAAGUCCCUGGAUUUU | 0.126
GCCAUCUGGGGUGUGGUGUGGUAUGUGGGAAGAAGUUCAGAGGAACCGUUGGAAACGACGUUAGGCAUUUUACCUUUUCAGUAACAUUUUAUACAUCUACUUGUCAAUGUAUUUGAGACA | 3.06
AGCUCUGCAGGAUCCUCCUUUGUAUUUGGAACUGGACCCUCAGCACCAUCUGCCAGUCCAGCAUUUGGUGCUAACCAGACCCCAACAUUUGGACAAAGUCAAGGUGCCAGCCAGCCCAAU | 0.099
GUUUAUCAGCCUUCAGUUGAAACAUACAAUCAGCUGUUGCAUCUUGCUUCUGAGCAAGGUAGUUUUGAUGGUGGGGACCAAGGCAUACUGAACACAUUUUUUAGCAGCUGGGCAACAACA | 0.559
GAUUCUUAUAUCAAAGCAGAUGAUCCUUCCUCCUACAUGGAAGUUGUUCAGGCUGCCAAUACUAGUGGAAACUGGGAAGAACUGGUGAAGUACUUGCAGAUGGCCCGUAAGAAGGCUCGA | 0.113
AAGAAAGAAAUGCAGCCUACACACCCAAUUCGUCUUGGUCUGGCACUAAAUUUCUCAGUCUUUUACUAUGAGAUUCUAAACUCUCCUGAAAAGGCCUGUAGCCUGGCAAAAACGGCAUUU | 0.205
UUGGGACCUACUUUAUUACCCAGUAUCUUUGGGUCUGUGAAUUGAAGCAUGGUUAUCCUUCACUUUAUGGCGAAUGUCUACUUAUAAAUGAGUAUAUAUCAUCUGUCUUGCUGGCUCCGG | 0.252
AUAUUAAACUGGUAUUUUCAAACAAUAGGAAACUUUUUUUUUUUUUUUUUUUUUUUACAGUUUAGUGUAUCUGGUUUCUACAUGGAAGACUAAACUCAUGCUUAUUGCUAAAUGUGGUCU | 11.9

Block 3
Target: RNA binding protein fox-1 homolog 2, RRM domain, GST-SBP tag (RBFOX2, Homo sapiens, UniProt O43251-10, residues 100-194)
Method: RNA Bind-n-Seq
Molecule type: RNA
Matrix: in vitro
Concentration: 365 nM
Notes: natural RNA segment, single round, ends assumed
Reference: no-protein control
Direction: higher = stronger binding
Shared flanks, not repeated: GGGAGUUCUACAGUCCGACGAUC … UGGAAUUCUCGGGUGCCAA
Construct (chain): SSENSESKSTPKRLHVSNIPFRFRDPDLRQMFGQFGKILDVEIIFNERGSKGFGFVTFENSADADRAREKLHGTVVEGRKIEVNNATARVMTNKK
Oligonucleotide | RBNS enrichment (R)
UAGUAGCAGACAGAUGGAAACAUUGUCUCAUUUUGUCAAGGAGUCCAAAGAAAUGAUUAUAAAACCAGGAUUCAUCCUUCUUCUCCAGAAAGAUUUUUUUUUAAGUAAAC | 0.626
UAUGAUCAGCUCCAGCUACCUGGGCAGUUGUGGUGGGGUGGAUGGGAAGGCCCACAGCCCAAGGGAUCCAUAAUAAUAAUUGCUUGGCCAGCCAUGUGGCCUGCUGGCGU | 0.711
CUACAAGUUCAAGCGUUCCAAGCGCUUCUGUUCCAUGGCUUGUGCAAAGAGGUAUAAUGUGGGAUGCACCAAACGAGUGGGACUUUUUCACUCAGACCGAAGCAAGCUGC | 0.286
CUCUGCAGAGACUGCCUGGUCCUCAUUGUACUUUGGUGGCUCAACUGAAUAAAGCCUUGUGGGAAGCCUCUGUAGGCUCCCGACCCCGGGAAGAAACUGGAACCGGUCCA | 0.385
UCCCCGUGCUCCUGGCGAGCCUGAGCUUGCCACCCGGUUCUCCCUGCCCGACUCCAGCUGCCCAAGGACCUUUGUGUAAGGUGGCCUCAACUGUCUGGUUUUCUUUUUUU | 0.348
CUUCUGGGGACUUGGCUGCCAAGUGAUAAAAACGUUAACGACCUUUAAGUACUCUUCCAGAUGAGAGCUCUUCUACCUUACGUCCAAGAUCUGUAUAUGUGGGAACAAAU | 0.442
CCAGUGAAGUAUGCUCUUGGGUCUUUGGCAAAGCUGGAAAGAGAAAGGGCCUCCUUGUUCUUUCCCAGAAACAUUCAGUGGCUUGGACCAACCCCUGAGUAUAUACAUUG | 0.551
AUUGUGCAAUUUAAGAAUAACUUAAGGAUCUUGGACUUUACAUAAAUCUUGAAUUGUAUAAACUCUACCUUGAGUCCAUUUUUUCUUCAGUGGAGUGGUGACAAAGAUUU | 0.488
GUUGGUUUCCCGAAUAGUGUGCAUUCCAGCUGGAUAGUCUUAGGCAUGAUGAUAAUAAAAUCAAAAGCUGGAAUACAAUUAAAGCAUCAGAUUUACACUGGCACUGUGCC | 10.3
AGUGAAAGUUGUUUCAACAUUUUAAACAAACAGUGGUUAUAGACUCUUUCUUUAACCAUUGUAUAUUUUCUUCCAUUCUUGUCAUUGGUCAAUAGGGGAGGGUAGAUUAG | 0.611
GCUUUCAGGAGGGCCAGUUCCAAUCCUGAUCACAGCCUGCAUGGAUUUCCACUUGCCUGGUGCUUGCAGUUUGAAGGGAAGGAGGAAGAGGGAGGCAGAAAAGGAAGGCA | 12.5
AAUAAAUGUUUACAAUUUUAUAUUGAAGAUGGAAUAAGUGUUAGAGCGUCCAACUGUAUAUUUUUUACUUUUAUAGAUUUUAAAACUGAUCCUUUAUAUGUGUUUGGAGC | 0.986

Block 4
Target: CCNE1, cyclin fold, Cln2 fusion (human)
Method: yeast growth competition, sequencing
Matrix: yeast
Notes: strong parent motif
Reference: not given
Direction: higher = stronger binding
Parent: E2F1 docking peptide (human); PPVKRRLDLETDH
Change | normalised enrichment score
QPVKRRLDLETDH [P1Q] | 1.29
PPVKRRLDLKTDH [E10K] | 0.104
PPVKRRLDLQTDH [E10Q] | 1.39
PPVKRRLHLETDH [D8H] | 0.422
VPVKRRLDLETDH [P1V] | 0.98
APVKRRLDLETDH [P1A] | 1.64
PPVKRRFDLETDH [L7F] | 0.0132
PPVKRRLDLETDF [H13F] | 2.05
PPVKRRMDLETDH [L7M] | 0.173
PPSKRRLDLETDH [V3S] | 0.64
PPVKCRLDLETDH [R5C] | 0.303
PCVKRRLDLETDH [P2C] | 1.34
PPVKRRLDLETDT [H13T] | 1.56
PPQKRRLDLETDH [V3Q] | 0.262
PPVKRRLDLYTDH [E10Y] | 0.667
PPAKRRLDLETDH [V3A] | 1.76
PPVKRRLDLENDH [T11N] | 1.15
PPVARRLDLETDH [K4A] | 1.53
PPVKRREDLETDH [L7E] | -0.108
PKVKRRLDLETDH [P2K] | 1.61
PPVKRRLDLETDK [H13K] | 2.18
PPVKRRLDLNTDH [E10N] | 1.98
PPVKRRLELETDH [D8E] | 1.4
PIVKRRLDLETDH [P2I] | 0.497
PPVKRRLDLETDD [H13D] | 2.11

Block 5
Target: ABI1, truncated, D143A, DHFR fusion (Arabidopsis thaliana)
Method: DHFR PCA, deep sequencing
Matrix: yeast
Notes: methotrexate growth selection, single substitutions
Together with: (+)-ABA 0.39 µM
Reference: wild-type fitted maximum
Direction: higher = stronger binding
Parent: PYL1, truncated, DHFR fusion (Arabidopsis thaliana); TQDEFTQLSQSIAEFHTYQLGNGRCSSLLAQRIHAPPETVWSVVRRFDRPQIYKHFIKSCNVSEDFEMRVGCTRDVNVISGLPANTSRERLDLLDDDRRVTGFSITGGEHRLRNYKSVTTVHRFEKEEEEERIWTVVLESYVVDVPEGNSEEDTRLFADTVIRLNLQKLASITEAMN
Change | relative binding score [%]
K58T | 2.12
N149R | 14.2
G23R | 31.7
C72N | 18
E64L | 16.4
T135E | 0.316
Q19L | 12
A175N | 25.6
S27H | 20.1
T120V | -11.7
N85P | -6.08
N77M | 50.4
L93P | 7.57
I52R | 19.6
R69F | 2.98
D75Q | 52.5
T160R | -2.59
I105H | -13.3
L156I | 17.7
L166C | -3.98
E127F | 40.5

Some of these lines once more (block 4):
Change | normalised enrichment score
PPVKRRLDLETDT [H13T] | 1.56
PPQKRRLDLETDH [V3Q] | 0.262
PPVKRRLDLYTDH [E10Y] | 0.667
PPAKRRLDLETDH [V3A] | 1.76
PPVKRRLDLENDH [T11N] | 1.15
PPVARRLDLETDH [K4A] | 1.53
PPVKRREDLETDH [L7E] | -0.108
PKVKRRLDLETDH [P2K] | 1.61
PPVKRRLDLETDK [H13K] | 2.18
PPVKRRLDLNTDH [E10N] | 1.98
PPVKRRLELETDH [D8E] | 1.4
